Assay results of several laboratories.
A part holds a random share of what one study measured.

Sample 1
Target: RNA binding protein fox-1 homolog 2, RRM domain, GST-SBP tag (RBFOX2, Homo sapiens, UniProt O43251-10, residues 100-194)
Technique: RNA Bind-n-Seq
Form: RNA
Sample: in vitro
Tested at: 365 nM
Notes: natural RNA segment, single round, ends assumed
Baseline: no-protein control
Direction: higher = stronger binding
Constant ends, left off below: GGGAGUUCUACAGUCCGACGAUC … UGGAAUUCUCGGGUGCCAA
Residues (chain): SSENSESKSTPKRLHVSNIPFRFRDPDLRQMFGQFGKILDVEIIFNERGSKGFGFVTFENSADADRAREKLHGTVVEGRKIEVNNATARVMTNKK
Strand | RBNS enrichment (R)
AGCUCACUCCACAAGUAAAUGGAUUUAAUCAAAGGUCACCUAUCUGCUUUUGAUUGUCUAGGUCACAGUAAUCCCUAGGAUUUUUCACCGCUUAUUCUUUUUGUCUUUUU | 0.682
UUUGCUACUGAAUGCUUACACUAAUCUUGGUGUUUAAUGUUACAUGCUUAAAUUCUUUUCAGUUUUCACAGUGGCACAUUUAGGCAUGGGGAUAGUACUAAUUAUGAAAU | 1.24
UUCCUCCUGGACCCCAUCCUCUACCAUCCAAGCCCUGUCCCACUUUGGCCCUAUCCUCUCCAUUAGCUCCUUCCGGGUUUGGACCAUUCCCCCCACUCCCUACCCUUAAU | 0.979
CCUAGACAACACUUAAACUCAUAUGAAACAAAAAUUAAAAUACGUAUUACAAGUACUUGGAUUGUUCCUUAGUCAUUAAAUAGGAUAUAAAUUAGGUUGAGAAGGGGGUA | 0.455
CCUUGGCAACACUGGAGUGCACACGCCGCCACGGUUGCCCAGAAAAAGUGCCCAAGCUGCUGACGCAAACAACAACAAAUGCUGCUUAUUUGCAUGCCGACUUACAUAUA | 0.987
GCUUCCCCGUGACUAGGAAUUUAGCCAUAAGACUAGUUCAAGGCUAACCACCAAGCUUCCCUUUGACUGGCUCCAAAGGCUUUUAUUUAAGUGAGAUGGAAAAGCUGAAU | 0.39
CACUCAUUGCAGUCUUGUUGAACCAGGGUCCUAACCACUAACAUUGCAAUUUGCUUUGAGACCUUCCCUGUCCUGGGUACUAGGUGCUAUGAAGCCAGCUGACAGAAGCA | 0.809
CUUUACUCUGUGAUUUCAGGUUCUAACAACAUGGCCUGUCGUUUUAUUUUAAAAGUUCCUGCUGUUCUUUACAAAUCCAGUUCUGAGGUGCAGGCCACCAACAGCAGCGU | 0.454
UUUCUUACUUUCCCACCCGCUUUCUCUCUGGUCUUCUCCCAGGCUGGAUCUGGGCGAAGUGUCACUUUUUAGUGCCUAAAGUCCUAUUGUUUCUCUGUGCCCUAAGAGCA | 2.42
AGUACCAGUUCUGCCAGCCACAGUGAGCCCCUAUUAUUACUUUCAGAUUGUCUGUGACACUCAAGCCCCUCUCAUUUUUAUCUGUCUACCUCCAUUCUGAAGAGGGAGGU | 0.796
AUCUUCUGUGAGGUGGGAUUUUUGUGUUCCUCACACCCAUGUAAUUAUUCUUAGAAUUGAGAUUGCUACACGGAGCAGUCCUUGACGAUCGUGUUUCUGACGUUUCUCUU | 0.256
GUGAAUGACAGGUACUGACAGCCCAACAUUAAGGUGCAAAUAGCCUGUUUGUCAUAUCAGAAGCCAUGGAAUAAUAAACCCAGGGGAAUCCAGAAACCACACUUAGUGGU | 0.197

Sample 2
Target: TAR DNA-binding protein 43, full length, His tag (TARDBP, Homo sapiens, UniProt Q13148, residues 1-414)
Technique: RNA Bind-n-Seq
Form: RNA
Sample: in vitro
Tested at: 20 nM
Notes: 6-mer, flanks averaged, single round
Added: 150 mM KCl
Baseline: input library
Direction: higher = stronger binding
Strand | 6-mer enrichment (R)
ACUACU | 0.58
UUCCCA | 0.594
UGAGUA | 0.885
UAUAAG | 0.738
ACGUGU | 0.891
GGUCAA | 0.955
UAGUAG | 0.846
AAUUGC | 0.631
ACGCAC | 0.691
GGGUAC | 2.01
UUGUCU | 0.606
CUCGUG | 0.777
UAAGAU | 0.627
UGUGGA | 1.49
AGCCAU | 0.646
CUCAUG | 0.646
GCAAUU | 0.662
GCUAGA | 0.895
GCUUAU | 0.628
GGACUG | 1.64
ACCGCC | 0.667
GACCCA | 0.722

Sample 3
Target: RING finger protein unkempt homolog, zinc fingers 1-6, GST-SBP tag (UNK, Homo sapiens, UniProt Q9C0B0, residues 30-357)
Technique: RNA Bind-n-Seq
Form: RNA
Sample: in vitro
Tested at: not given
Notes: RNA with constant flanks, ends assumed
Baseline: input RNA pool
Direction: higher = stronger binding
Constant ends, left off below: GGGAGUUCUACAGUCCGACGAUC … CAACAGAGGAUUGAGCAUCA
Target sequence (chain): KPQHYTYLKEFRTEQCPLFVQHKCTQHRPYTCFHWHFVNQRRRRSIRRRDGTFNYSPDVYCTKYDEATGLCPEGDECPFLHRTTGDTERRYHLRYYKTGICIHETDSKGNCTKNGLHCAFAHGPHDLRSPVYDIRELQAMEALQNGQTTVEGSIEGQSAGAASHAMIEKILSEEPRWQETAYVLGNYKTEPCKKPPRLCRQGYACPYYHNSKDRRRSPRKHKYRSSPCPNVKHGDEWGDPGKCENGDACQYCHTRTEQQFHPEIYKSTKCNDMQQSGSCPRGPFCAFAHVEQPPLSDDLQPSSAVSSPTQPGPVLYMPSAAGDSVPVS
Strand | bound/input enrichment
UCUCUAAGAGGAAGACCUUCAAAUUUGGUUCAUACGACAACAGUUAUUAAGAGAGAUUUCCCGUAAUCUUCAGAUGUGAGGUUUUUUUUCUGCCAACAAAAGUCACAUUCAAAUUGUAUU | 0.238 ratio
GCCAGCAAGAACGAGGAGGACGCGGGAAAAAUGUUCGUUGGUGGCCUGAGCUGGGAUACCCGCAAAAAAGAUUUAAAAGACUAUUUUACUAAAUUUGGAGAGGUCGUUGACUGUACAAUA | 0.966 ratio
GUGGCUCGCUAUGCUGCCGAGAACAACAGGGUCUUCACUUUGAACCUGUCUGCACCGUUCAUCCGCCAGUUCUUCAAGGAAGCCUUGAUGGACGUCAUGCCUUAUGUUGAUAUCCUCUUU | 0.123 ratio
AACAACAAAAAACCCCAAGGAACCUAAUAACCUUUUUGAAAAACAAAAUAAUGAGAAUUUUCCGUGAUAUAUUUCUUAUUUGACAGAAUAAGGUGUCUGGAGGGGGUCCUGUACUCAUCC | 0.362 ratio
GAAGAUGGUGGUUGUACAUUAUUCAUCUAGAAAAUAUAAAAAUUCAUUUUGUUUUGAAGCCCGUUAUUAAACUGGAAUAGCAGUUAUAUCCCUGAGAAUGGGGCCCUUCUCUUGACAUUC | 6.56 ratio
UACCUCAGUACCUCAGUAGGAUGCAAGGACUGUGCCUUCUUUGACUCAGCCAGUGCUUGCUACCGUCAGGCUACAAGCCAAGAGGUCCCCACAGAGUAUUAACAAUAAAUACUUCUGGCC | 0.0759 ratio
UAUACUGGCAUUGAUCAUCACUGGAAAGACCCAGUCUUUGCCACUUGUGGACAGCAAGCCGACAUUUGGGAUGAACAAAGAACCAGCCCUGUGUGCUCAAUGAACUGGGGAUUUGACAGC | 0.135 ratio
GUCUGUCUCAAGGGUACUUAAGCAGCAGAGACCCCUGAAUAUAGGGAUUCUACCUUUUCUUUCCGAAUGGGACUUUUCUAGUGUGAGUGUCUAGGUUGGAUAGGAGACCUUGCCAAAUUC | 0.71 ratio
GCUUCUAAAAUGUGAUUAUCGACCAUGGUAUGCAUGAUCGUUGUAAUUGUUGACAUUCCUUUCCGAAGUUGUGAAAUGUUACAACUUGUGCUUAUGUAGACACAAUCUUCUGUCUCAGUA | 0.116 ratio
GACGAUGUCAUACAGCGCAAGAGGGAGCUGUGGCCACCUGAGAAGCUUCAAGAGACCGAGGAAUUCAAAGAGAGGUUACGGAAGCGGCGGGAGGAGAAGCUCCUUCGCGACGCCCAGCAG | 0.133 ratio
CUCCAUUUCUUCUCAUUUUGUGGCCUCGGGCUCCACCAGCUGCUCCCCAGUGACAGUCCCCCGCUUCCUUCUACCAUCUACUGACUGUCUCCACUGAGCCUUUCCUACCUUCCCUUCACA | 0.529 ratio

Sample 4
Target: Histone acetyltransferase KAT6A, both winged helices, GST fusion (KAT6A, Homo sapiens, UniProt Q92794, residues 1-181)
Technique: protein binding microarray
Form: double-stranded DNA, one strand shown
Sample: in vitro
Tested at: not given
Notes: 8-mer, flanks averaged, mean of 2 arrays, mostly near background
Baseline: not given
Direction: higher = stronger binding
Construct (chain): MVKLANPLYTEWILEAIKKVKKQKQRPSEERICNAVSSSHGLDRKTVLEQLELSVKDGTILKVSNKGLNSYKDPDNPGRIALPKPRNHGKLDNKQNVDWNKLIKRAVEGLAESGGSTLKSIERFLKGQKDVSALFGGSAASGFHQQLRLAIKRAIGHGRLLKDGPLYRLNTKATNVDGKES
Strand | E-score
GCTTCGAC | 0.0186
AAAGCCAA | -0.165
GGTGGGCA | -0.175
CTGTTTAC | -0.0395
GTCCACAA | -0.195
CTAATTAG | -0.135
AACGCTGG | 0.0186
GCGGGACA | 0.295
CCTTGTCG | -0.037
CGGAATAA | 0.149
GTCGTGAA | 0.0722
CCTACCTC | -0.211
ACCCAGTG | -0.185
CTAAAGCA | -0.0919
GGCATGCA | 0.0593
GCGCCAGC | 0.152
ATAATTGC | 0.122
CCCTAGGC | -0.219

Repeated from above (sample 2):
Strand | 6-mer enrichment (R)
UGAGUA | 0.885
AGCCAU | 0.646
UAGUAG | 0.846
ACGCAC | 0.691
GCUAGA | 0.895
UAUAAG | 0.738
UAAGAU | 0.627
CUCAUG | 0.646
